Measured values pooled from the literature.
Protocols differ between the studies behind these lines. “And” joins repeats or separate records; there may be more than shown. ± gives the spread as reported.

O=C(CCC1CCCCC1)Nc1cccc(-c2nnc(-c3ccco3)o2)c1 — IC50 (Mycobacterium tuberculosis; microbial growth): 10500 nM
NNC(=O)c1ccncc1.O=C(CN1C(=O)CSC1=O)Oc1ccc(C=NNC(=S)Nc2cccc(Cl)c2)cc1Cl — FICI (Mycobacterium tuberculosis; two-drug checkerboard; H37Rv; concentration not given, unit not given; lower means more synergy): 1.5
Cc1c(CN2CCN(C)CC2)cc(-c2ccc(Cl)cc2)n1-c1ccc(Cl)cc1 — IC50 (Mycobacterium tuberculosis; bacterial growth, inhibitor; mmpL3-TetON): 2460 nM
Cc1ccc(C[C@H]2CON=C(c3cc(C)nnc3Oc3cccc(Cl)c3F)N2)c(Cl)c1 — EC50 (Botrytis cinerea; fungal growth, inhibitor; B05.10 wild type; 168 h): 0.5 ± 0.3 nM
Cc1c(CC(=O)N[C@@H](Cc2ccccc2)C(=O)N(C)c2ccc(Cl)cc2)c2ccccc2n1C(C)C — EC50 (HIV-1; viral infection): 330 ± 30 nM
NC(=S)NN=Cc1ccc(OC(=O)CN2C(=O)CSC2=O)cc1.NNC(=O)c1ccncc1 — FICI (Mycobacterium tuberculosis; two-drug checkerboard; H37Rv; concentration not given, unit not given; lower means more synergy): 0.516
CC(C)CC(C(=O)N1CC2(CC1C#N)C(=O)Nc1ccccc12)N(C)C(=O)c1cc2c(F)cc(F)c(F)c2[nH]1 (stereo not drawn) — inhibition (Human coronavirus 229E; cytopathic effect; MRC5; 5.475 nM): 95.7%
O=C(NCC(F)(F)c1ccc(Cl)cc1Cl)c1cc(Cl)nnc1Oc1cccc(C2CC2)c1 — EC50 (Botrytis cinerea; fungal growth, inhibitor; B05.10 wild type; 168 h): 5.1 ± 2.2 nM
CCc1ccn2c(C(=O)N(C)C)c(C)nc2c1 — inhibition zone (Mycolicibacterium vaccae; microbial growth; IMET10670; 2 mM): 0 mm
Cc1ccc(NS(=O)(=O)c2c(C(=O)N3CCCCCC3)c(C)n(C)c2C)c(Cl)c1 — infection (Human alphaherpesvirus 1; viral infection; HaCaT; 0.1372 µM, 36 h; baseline: untreated): 94% and 96.8% and 102%
Cc1ccc2nc(C)c(C(=O)C(=O)N(C)C)n2c1 — inhibition zone (Mycolicibacterium vaccae; microbial growth; IMET10670; 2 mM): 0 mm
COc1cc(CN2CCC3(C=Cc4ccccc43)CC2)cc2c1OCO2 — IC50 (Mycobacterium tuberculosis; microbial growth): 1310 nM
Nc1ccccc1C(=O)OCC#CCOC(=O)c1ccccc1N — MIC (Saccharomyces cerevisiae; S288c wild type): > 64 µg/mL
CN(C(=O)[C@H](Cc1ccccc1)NC(=O)Cc1c[nH]c2ccc(O)cc12)c1ccc(Cl)cc1 — EC50 (HIV-1; viral infection): 21 ± 8 nM
COc1ccc2sc(Nc3nc(-c4ccccn4)cs3)nc2c1 — IC50 (Mycobacterium tuberculosis; bacterial growth, inhibitor; mmpL3-TetON): 2390 nM
Cc1ccc(CNC(=O)Cc2c(C)nc3ccc(C)cn23)cc1 — inhibition zone (Mycolicibacterium vaccae; microbial growth; IMET10670; 2 mM): 22 mm
Cc1ccc2nc(C(F)(F)F)c(C(=O)NCc3ccc4c(c3)OCO4)n2c1 — IC50 (Mycobacterium tuberculosis; bacterial growth, inhibitor; mmpL3-TetON): 1740 nM
Cc1cc(Oc2nc(N3CC[C@@H](c4ccncc4)C3)ncc2F)[nH]n1 — normalised growth (Mycobacterium tuberculosis; OD; H37Rv PurF CRISPRi knockdown; 0.000244 µM, together with: anhydrotetracycline low): 99% and 100%

A few entries again:
COc1ccc2sc(Nc3nc(-c4ccccn4)cs3)nc2c1 — IC50 (Mycobacterium tuberculosis; bacterial growth, inhibitor; mmpL3-TetON): 2390 nM
Cc1ccc2nc(C(F)(F)F)c(C(=O)NCc3ccc4c(c3)OCO4)n2c1 — IC50 (Mycobacterium tuberculosis; bacterial growth, inhibitor; mmpL3-TetON): 1740 nM
